Measured values from different studies.
Compare with care: the assays were run in different laboratories. Several values in a cell are separate wells, animals, samples, runs or records. ± marks the error that the study gave.

| SMILES | organism | test | system | setting | how to read | quantity | result |
| --- | --- | --- | --- | --- | --- | --- | --- |
| [O-][N+]1=C(c2ccsc2)C2=NCCCN2c2ccccc21 | Clostridioides difficile | microbial growth |  |  |  | MIC90 | 2 mg/L |
| CN(CCO)CCO.O=C(O)C(Cl)Cl | Chenopodium album | herbicidal activity |  | 15 mg/mL, 21 days, pre-emergence greenhouse |  | inhibition | 0% |
| CC[C@H](C)[C@@H]1NC(=O)[C@@H](CCCNC(=N)N)NC(=O)[C@@H](NC(=O)[C@@H](CC(C)C)NC(=O)[C@H](C)NC(=O)[C@H](C)NC(=O)[C@@H]2CCCN2C(=O)[C@@H](CC(C)C)NC(=O)[C@@H](NC(=O)[C@@H](CCCNC(=N)N)NC(=O)[C@@H](CC(C)C)NC(=O)[C@@H](CC(C)C)NC(=O)[C@@H](NC(=O)[C@@H](CCCNC(=N)N)NC(=O)[C@@H](CC(C)C)NC(=O)[C@@H](NC(=O)[C@@H](NC(=O)CNC(=O)[C@@H](CC(C)C)NC(=O)[C@@H](N)Cc2ccccc2)[C@@H](C)O)C(C)C)C(C)C)C(C)C)CSSC[C@@H](C(=O)O)NC(=O)[C@@H](CCCNC(=N)N)NC(=O)[C@@H](CCCNC(=N)N)NC(=O)[C@H](Cc2ccccc2)NC1=O | Staphylococcus aureus MRSA NCTC 12493 |  | Galleria mellonella larvae | 8 mg/kg, titanium implant biofilm infection |  | survival | 60% |
| CC(C)[C@H]1NC(=O)[C@H](Cc2c[nH]c3ccccc23)NC(=O)[C@@H](C(C)C)NC(=O)[C@@H](C)NC(=O)[C@H](CO)NC(=O)[C@@H](Cc2c(-c3ccc(-c4ccc5ccccc5c4)cc3)[nH]c3ccccc23)NC(=O)[C@@H](CO)NC1=O | Mycobacterium marinum |  |  |  |  | MIC90 | 49.1 µM |
| O=S(=O)(c1ccc(-c2ccc3ncnc(Nc4ccc(OCc5cccc(F)c5)c(Cl)c4)c3c2)cc1)N1CCOCC1 | Trypanosoma cruzi | intracellular amastigote growth, β-galactosidase CPRG | 3T3, Tulahuen, β-galactosidase-expressing | 10 µM, 96 h |  | inhibition | 0% |
| Cc1cc(C(=O)Nc2nc3cccc(C)c3n2[C@H]2CCCCN(C(=O)/C=C/CN(C)C)C2)ccn1 | Trypanosoma brucei | propidium iodide flow cytometry | bloodstream form | concentration not given, 16 h |  | cells in G2 phase | 35.9% |
| CCCCCCCC(=O)NCCCC[C@H](NC(=O)CCCCCCC)C(=O)N[C@@H](CCCCNC(=O)CCCCCCC)C(=O)NCC(=O)NCC(=O)NCC(=O)N[C@@H](CS)C(=O)N[C@@H](CCCNC(=N)N)C(=O)N[C@@H](CCCCN)C(=O)N1CCC[C@H]1C(=O)N[C@@H](CS)C(=O)N[C@@H](CCCNC(=N)N)C(=O)N[C@@H](CCCCN)C(=O)N1CCC[C@H]1C(N)=O | Candida |  |  | twelve fungal strains |  | geometric mean MIC | 8 µM |
| CC(C)C[C@@H]1NC(=O)[C@H](CCC2CCCCC2)NC(=O)[C@H](CC(C)C)NC(=O)[C@H](C(C)C)NC(=O)[C@]2(C)CCCN2C(=O)[C@H](C(C)C)NC(=O)[C@H](Cc2ccccc2)NC(=O)CSCCNC(=O)[C@H](C(C)(C)O)NC1=O | HIV-1 | viral replication | MT4 |  | relative to: cell EC50 over protease IC50 | EC50/IC50 ratio | 718 |
| CCCCCCCCCCCC(=O)C(C)C(=O)N1CCC[C@H]1C(=O)NC(C)(C)C(=O)NC(C)(C)C(=O)NC(C)(C)C(=O)N[C@](C)(CC)C(=O)NCCC(=O)N[C@@H](C)C(=O)N[C@](C)(CC)C(=O)N[C@@H](C)C(=O)N[C@@H](CC(C)C)C(=O)N[C@](C)(CC)C(=O)NCCC(=O)N[C@@H](C)C(=O)N[C@](C)(CC)C(=O)NCCC(=O)N[C@@H](C)C(=O)NC(C)(C)C(=O)NC(C)(C)C(=O)NC(C)(C)C(=O)N[C@@H](C)C(=O)N[C@@H](CC(=O)O)C(=O)O (stereo partly drawn) | Candidozyma auris | calcofluor white microscopy | CBS 10913 | half MIC, 4 h, 30 °C, YPD medium | relative to: DMSO vehicle, higher = more chitin | chitin level (calcofluor fluorescence) | 0.044 a.u. |
| CN(C(=O)c1ccn2ncc(-c3ccc(C(N)=O)cc3)c2c1)c1ccc(C#N)cn1 | Cryptosporidium parvum |  | UGA1 Nluc, IFN-gamma knockout C57BL/6 mice, faeces | oral, 10 mg/kg daily, 288 h post infection, treatment days 11-17 | higher means more parasites | faecal Nluc luminescence | 13600 a.u. and 165 a.u. and 1970 a.u. and 9400 a.u. and 1290 a.u. |
| CN(C)c1nc(NCc2ccc(F)cc2F)c(/N=N/c2ccc(Cl)cc2)c(N(C)C)n1 | Ostrinia furnacalis | leaf dipping |  | 200 mg/L, 96 h |  | mortality | 85 ± 7.1% |
| CC[C@H](C)CCCCC(=O)N[C@@H](CCN)C(=O)N[C@H](C(=O)N[C@@H](CCN)C(=O)N[C@H]1CCNC(=O)[C@H]([C@@H](C)O)NC(=O)[C@H](CCN)NC(=O)[C@H](CCN)NC(=O)[C@H](CC(C)C)NC(=O)[C@@H](CC(C)C)NC(=O)[C@H](CCN)NC1=O)[C@@H](C)O | Escherichia coli | daily serial passaging | ATCC 8739 | highest sub-MIC, 6 days | relative to: initial MIC | MIC fold change | 2.47 |

A few entries again:
| SMILES | organism | test | system | setting | how to read | quantity | result |
| --- | --- | --- | --- | --- | --- | --- | --- |
| CN(C(=O)c1ccn2ncc(-c3ccc(C(N)=O)cc3)c2c1)c1ccc(C#N)cn1 | Cryptosporidium parvum |  | UGA1 Nluc, IFN-gamma knockout C57BL/6 mice, faeces | oral, 10 mg/kg daily, 288 h post infection, treatment days 11-17 | higher means more parasites | faecal Nluc luminescence | 13600 a.u. and 165 a.u. and 1970 a.u. and 9400 a.u. and 1290 a.u. |
| CC[C@H](C)[C@@H]1NC(=O)[C@@H](CCCNC(=N)N)NC(=O)[C@@H](NC(=O)[C@@H](CC(C)C)NC(=O)[C@H](C)NC(=O)[C@H](C)NC(=O)[C@@H]2CCCN2C(=O)[C@@H](CC(C)C)NC(=O)[C@@H](NC(=O)[C@@H](CCCNC(=N)N)NC(=O)[C@@H](CC(C)C)NC(=O)[C@@H](CC(C)C)NC(=O)[C@@H](NC(=O)[C@@H](CCCNC(=N)N)NC(=O)[C@@H](CC(C)C)NC(=O)[C@@H](NC(=O)[C@@H](NC(=O)CNC(=O)[C@@H](CC(C)C)NC(=O)[C@@H](N)Cc2ccccc2)[C@@H](C)O)C(C)C)C(C)C)C(C)C)CSSC[C@@H](C(=O)O)NC(=O)[C@@H](CCCNC(=N)N)NC(=O)[C@@H](CCCNC(=N)N)NC(=O)[C@H](Cc2ccccc2)NC1=O | Staphylococcus aureus MRSA NCTC 12493 |  | Galleria mellonella larvae | 8 mg/kg, titanium implant biofilm infection |  | survival | 60% |
